{"data": "Assay results from different studies", "organism": "Mycobacterium tuberculosis", "note": "Protocols differ between the studies behind these lines."}
{"SMILES": "O=[N+]([O-])c1cc(C(F)(F)F)ccc1NCCc1c[nH]c2ccc(O)cc12", "test": "growth in liquid medium", "system": "H37Rv", "setting": "5 days", "endpoint": "MIC90", "value": "13 µM"}
{"SMILES": "CCN(CC)C(=O)C[C@H](NC(=O)CCc1ccccc1)C(=O)N[C@@H](Cc1ccc(F)cc1)C(=O)NCc1cccc2ccccc12", "test": "non-replicating bacteria", "system": "H37Rv", "setting": "above twice Ki, 11 days, pH 5.5, added: 0.5 mM NaNO2", "endpoint": "killing", "value": "≤ 2.2 log10 CFU"}
{"SMILES": "COc1ccc(-c2ccc(C(=O)NCc3c4c(c(C)[nH]c3=O)CCCC4)cc2)cc1", "test": "microbial growth, resazurin", "system": "H37RV", "setting": "25 µg/mL", "endpoint": "inhibition", "value": "98.3%"}
{"SMILES": "C/C=C/C[C@@H]1NC(=O)[C@H](CC(C)C)N2C(=O)[C@H](C[C@@H](C)[C@H]2OCCCC)N(C)C(=O)[C@H](C)NC(=O)[C@H](Cc2ccc(O)c([N+](=O)[O-])c2)NC(=O)[C@H](CC(C)C)N(C)C(=O)[C@H](Cc2cn(C(C)(C)C(O)CCl)c3ccccc23)NC1=O (some centres unmarked)", "test": "microbial growth, resazurin", "endpoint": "MIC90", "value": "4.3 µM"}
{"SMILES": "COc1ccc(NC(=O)c2nc(S(C)(=O)=O)ncc2Cl)cc1Cl", "test": "growth inhibition", "setting": "144 h, pH 7.0", "endpoint": "EC50", "value": "> 30000 nM"}
{"SMILES": "COc1cc2ccc3oc([N+](=O)[O-])cc3c2cc1OC", "system": "H37Rv", "endpoint": "MIC90", "value": "0.031 to 0.5 µg/mL"}
{"SMILES": "COc1cc(OC)cc(Oc2ccc(C(=O)NCc3c4c(c(C)[nH]c3=O)CCCC4)cc2)c1", "test": "microbial growth, resazurin", "system": "H37RV", "setting": "25 µg/mL", "endpoint": "inhibition", "value": "64.3%"}
{"SMILES": "COc1ccc2ccc3oc([N+](=O)[O-])cc3c2c1Br", "system": "H37Rv", "endpoint": "MIC90", "value": "0.031 to 0.5 µg/mL"}
{"SMILES": "COc1cc(OC)cc(-c2ccc(C(=O)NCc3c4c(c(C)[nH]c3=O)CCCC4)cc2)c1", "test": "microbial growth, resazurin", "system": "H37RV", "setting": "25 µg/mL", "endpoint": "inhibition", "value": "99.8%"}
{"SMILES": "CC1(c2ccc(S(=O)(=O)c3ccccc3)cc2)OC(=O)C=CC1=O (centres unmarked)", "system": "H37Rv, Sauton's medium", "setting": "added: biotin 1 µM", "endpoint": "MIC90", "value": "100 µg/mL"}
{"SMILES": "O=[N+]([O-])c1ccc(/C=N/Nc2nc(Nc3ccccc3)nc(N3CCOCC3)n2)o1", "test": "intracellular bacterial growth", "system": "J774.1 mouse macrophages, mc^26206", "endpoint": "IC50", "value": "1300 nM"}
{"SMILES": "Cc1cc(C(F)(F)F)ccc1C(=O)NCc1c2c(c(C)[nH]c1=O)CCCC2", "test": "microbial growth, resazurin", "system": "H37RV", "setting": "25 µg/mL", "endpoint": "inhibition", "value": "34.5%"}
{"SMILES": "N#Cc1ccc2c(ccc3oc([N+](=O)[O-])cc32)c1", "system": "H37Rv", "endpoint": "MIC90", "value": "0.031 to 0.5 µg/mL"}
{"SMILES": "O=[N+]([O-])c1ccc(/C=N/Nc2nc(Nc3ccccc3)nc(Nc3ccccc3)n2)o1", "test": "intracellular bacterial growth", "system": "J774.1 mouse macrophages, mc^26206", "endpoint": "IC50", "value": "270 nM"}
